Measured values collected from several papers.
A part holds a random share of what one study measured. Values joined by “and” are separate records of one study, mostly repeats; a detail may differ.
Sequence of UniProt O95747 (whole entry, looked up): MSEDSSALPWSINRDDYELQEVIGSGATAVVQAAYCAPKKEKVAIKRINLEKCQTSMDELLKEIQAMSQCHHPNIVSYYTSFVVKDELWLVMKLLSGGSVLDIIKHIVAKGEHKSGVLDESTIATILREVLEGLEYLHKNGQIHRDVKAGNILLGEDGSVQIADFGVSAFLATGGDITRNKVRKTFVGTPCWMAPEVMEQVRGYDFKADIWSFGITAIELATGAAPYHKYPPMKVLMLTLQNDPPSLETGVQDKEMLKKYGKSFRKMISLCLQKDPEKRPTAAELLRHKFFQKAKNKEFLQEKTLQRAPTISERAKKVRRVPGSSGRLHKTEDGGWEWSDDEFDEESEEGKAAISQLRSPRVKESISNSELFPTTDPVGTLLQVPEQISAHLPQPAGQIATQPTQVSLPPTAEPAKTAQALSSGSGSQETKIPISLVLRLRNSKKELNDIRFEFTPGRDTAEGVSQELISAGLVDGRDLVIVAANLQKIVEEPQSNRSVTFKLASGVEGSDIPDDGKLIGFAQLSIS
Sequence of UniProt P37173 (whole entry, looked up): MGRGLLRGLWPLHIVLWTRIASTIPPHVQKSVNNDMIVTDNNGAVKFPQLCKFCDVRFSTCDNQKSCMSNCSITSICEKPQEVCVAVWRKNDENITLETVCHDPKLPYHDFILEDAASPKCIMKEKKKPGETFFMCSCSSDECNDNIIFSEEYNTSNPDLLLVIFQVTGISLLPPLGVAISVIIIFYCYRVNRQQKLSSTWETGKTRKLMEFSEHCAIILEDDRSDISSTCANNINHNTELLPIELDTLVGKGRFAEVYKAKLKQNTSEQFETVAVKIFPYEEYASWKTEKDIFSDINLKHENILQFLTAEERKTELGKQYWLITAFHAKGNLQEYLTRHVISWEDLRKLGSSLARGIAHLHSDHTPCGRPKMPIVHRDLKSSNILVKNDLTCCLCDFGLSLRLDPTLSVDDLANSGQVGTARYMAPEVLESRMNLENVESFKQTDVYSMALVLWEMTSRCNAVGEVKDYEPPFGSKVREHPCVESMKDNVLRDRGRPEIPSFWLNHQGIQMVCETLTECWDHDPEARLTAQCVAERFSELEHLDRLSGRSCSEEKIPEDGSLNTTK
Sequence of UniProt O60674 (whole entry, looked up): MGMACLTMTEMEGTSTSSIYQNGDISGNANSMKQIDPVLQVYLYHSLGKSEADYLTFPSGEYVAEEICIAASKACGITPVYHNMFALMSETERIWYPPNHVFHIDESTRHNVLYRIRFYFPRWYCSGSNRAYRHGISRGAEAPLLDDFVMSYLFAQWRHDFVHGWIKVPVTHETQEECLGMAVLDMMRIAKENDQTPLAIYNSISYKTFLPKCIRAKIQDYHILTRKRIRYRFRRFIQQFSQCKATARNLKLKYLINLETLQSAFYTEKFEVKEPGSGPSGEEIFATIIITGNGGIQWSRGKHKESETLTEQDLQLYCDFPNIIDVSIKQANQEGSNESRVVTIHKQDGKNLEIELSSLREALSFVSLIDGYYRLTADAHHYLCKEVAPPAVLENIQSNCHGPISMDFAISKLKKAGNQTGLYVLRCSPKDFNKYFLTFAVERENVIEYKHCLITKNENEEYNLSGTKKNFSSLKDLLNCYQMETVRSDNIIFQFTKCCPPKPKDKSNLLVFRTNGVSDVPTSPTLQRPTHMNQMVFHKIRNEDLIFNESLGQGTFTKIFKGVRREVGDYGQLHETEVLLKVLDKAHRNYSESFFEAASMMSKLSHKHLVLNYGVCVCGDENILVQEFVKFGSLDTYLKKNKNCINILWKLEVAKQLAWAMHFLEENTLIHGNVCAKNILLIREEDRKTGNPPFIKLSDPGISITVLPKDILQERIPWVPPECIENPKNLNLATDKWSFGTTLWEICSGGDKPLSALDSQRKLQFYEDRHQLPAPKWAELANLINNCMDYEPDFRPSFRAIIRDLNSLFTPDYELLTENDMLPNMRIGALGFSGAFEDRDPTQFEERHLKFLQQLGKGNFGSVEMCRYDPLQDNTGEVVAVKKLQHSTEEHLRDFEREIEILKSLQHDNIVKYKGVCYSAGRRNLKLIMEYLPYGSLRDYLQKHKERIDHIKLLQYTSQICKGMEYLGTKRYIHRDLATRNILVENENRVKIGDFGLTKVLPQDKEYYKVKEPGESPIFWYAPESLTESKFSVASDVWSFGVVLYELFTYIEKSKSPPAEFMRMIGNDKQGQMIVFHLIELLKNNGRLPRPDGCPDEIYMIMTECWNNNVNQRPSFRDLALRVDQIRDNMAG
Sequence of UniProt P42336 (whole entry, unmodified, looked up): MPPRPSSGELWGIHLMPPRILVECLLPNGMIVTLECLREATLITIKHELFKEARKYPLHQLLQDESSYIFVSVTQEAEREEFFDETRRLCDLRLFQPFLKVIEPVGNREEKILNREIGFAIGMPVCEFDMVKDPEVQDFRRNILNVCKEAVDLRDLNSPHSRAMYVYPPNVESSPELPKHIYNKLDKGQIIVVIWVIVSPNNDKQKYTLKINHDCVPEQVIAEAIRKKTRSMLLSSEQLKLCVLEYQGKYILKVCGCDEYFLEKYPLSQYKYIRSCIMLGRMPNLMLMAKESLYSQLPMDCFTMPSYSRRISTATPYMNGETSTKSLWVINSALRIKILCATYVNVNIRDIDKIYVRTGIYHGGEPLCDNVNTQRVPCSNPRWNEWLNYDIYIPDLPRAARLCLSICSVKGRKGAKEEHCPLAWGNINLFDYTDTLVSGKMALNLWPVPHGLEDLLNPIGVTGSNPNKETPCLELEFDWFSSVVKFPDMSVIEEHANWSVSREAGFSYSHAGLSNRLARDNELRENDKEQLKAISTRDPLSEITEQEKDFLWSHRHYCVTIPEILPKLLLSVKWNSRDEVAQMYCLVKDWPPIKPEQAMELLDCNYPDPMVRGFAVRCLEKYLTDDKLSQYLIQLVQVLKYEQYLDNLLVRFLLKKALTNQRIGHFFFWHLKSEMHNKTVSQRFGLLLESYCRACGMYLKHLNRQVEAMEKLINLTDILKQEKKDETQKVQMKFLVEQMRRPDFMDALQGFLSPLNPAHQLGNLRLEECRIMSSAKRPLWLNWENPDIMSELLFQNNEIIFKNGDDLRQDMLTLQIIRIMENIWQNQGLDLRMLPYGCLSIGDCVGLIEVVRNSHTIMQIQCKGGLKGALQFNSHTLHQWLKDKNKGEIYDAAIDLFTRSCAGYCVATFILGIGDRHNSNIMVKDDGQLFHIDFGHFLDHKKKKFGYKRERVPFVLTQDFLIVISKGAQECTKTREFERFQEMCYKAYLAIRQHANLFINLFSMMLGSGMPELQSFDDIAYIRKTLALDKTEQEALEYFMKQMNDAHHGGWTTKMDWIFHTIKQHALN
Sequence of UniProt Q9UL54 (whole entry, looked up): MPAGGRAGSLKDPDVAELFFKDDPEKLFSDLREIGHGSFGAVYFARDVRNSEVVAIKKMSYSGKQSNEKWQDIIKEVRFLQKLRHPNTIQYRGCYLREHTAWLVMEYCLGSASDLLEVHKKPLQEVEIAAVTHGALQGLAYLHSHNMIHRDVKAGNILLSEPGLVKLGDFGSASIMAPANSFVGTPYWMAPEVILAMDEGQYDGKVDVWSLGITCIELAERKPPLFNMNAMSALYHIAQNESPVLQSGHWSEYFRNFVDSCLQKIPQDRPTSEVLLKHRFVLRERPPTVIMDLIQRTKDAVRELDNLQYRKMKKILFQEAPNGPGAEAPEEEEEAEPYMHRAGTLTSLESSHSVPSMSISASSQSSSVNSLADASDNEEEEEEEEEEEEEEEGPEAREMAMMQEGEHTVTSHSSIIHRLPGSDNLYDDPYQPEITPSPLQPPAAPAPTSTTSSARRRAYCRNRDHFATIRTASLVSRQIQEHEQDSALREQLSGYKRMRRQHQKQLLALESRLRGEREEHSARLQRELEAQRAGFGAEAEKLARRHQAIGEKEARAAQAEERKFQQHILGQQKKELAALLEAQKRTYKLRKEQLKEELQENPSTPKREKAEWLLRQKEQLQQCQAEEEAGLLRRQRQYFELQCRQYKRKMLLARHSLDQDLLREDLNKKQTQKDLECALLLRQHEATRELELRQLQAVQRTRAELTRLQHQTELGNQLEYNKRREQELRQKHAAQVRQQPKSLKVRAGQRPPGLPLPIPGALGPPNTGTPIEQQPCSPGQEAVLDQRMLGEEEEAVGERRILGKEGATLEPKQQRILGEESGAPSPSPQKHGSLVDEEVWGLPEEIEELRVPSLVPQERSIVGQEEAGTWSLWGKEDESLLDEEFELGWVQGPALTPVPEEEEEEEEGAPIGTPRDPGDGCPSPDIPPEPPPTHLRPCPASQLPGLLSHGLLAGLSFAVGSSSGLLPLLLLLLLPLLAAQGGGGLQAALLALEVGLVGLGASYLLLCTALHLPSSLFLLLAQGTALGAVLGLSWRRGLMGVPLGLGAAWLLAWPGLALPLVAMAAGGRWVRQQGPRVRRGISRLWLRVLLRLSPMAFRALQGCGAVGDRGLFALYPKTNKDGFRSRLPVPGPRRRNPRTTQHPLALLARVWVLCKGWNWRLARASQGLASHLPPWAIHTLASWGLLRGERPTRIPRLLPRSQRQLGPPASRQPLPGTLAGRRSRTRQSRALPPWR
Sequence of UniProt P07948 (whole entry, looked up): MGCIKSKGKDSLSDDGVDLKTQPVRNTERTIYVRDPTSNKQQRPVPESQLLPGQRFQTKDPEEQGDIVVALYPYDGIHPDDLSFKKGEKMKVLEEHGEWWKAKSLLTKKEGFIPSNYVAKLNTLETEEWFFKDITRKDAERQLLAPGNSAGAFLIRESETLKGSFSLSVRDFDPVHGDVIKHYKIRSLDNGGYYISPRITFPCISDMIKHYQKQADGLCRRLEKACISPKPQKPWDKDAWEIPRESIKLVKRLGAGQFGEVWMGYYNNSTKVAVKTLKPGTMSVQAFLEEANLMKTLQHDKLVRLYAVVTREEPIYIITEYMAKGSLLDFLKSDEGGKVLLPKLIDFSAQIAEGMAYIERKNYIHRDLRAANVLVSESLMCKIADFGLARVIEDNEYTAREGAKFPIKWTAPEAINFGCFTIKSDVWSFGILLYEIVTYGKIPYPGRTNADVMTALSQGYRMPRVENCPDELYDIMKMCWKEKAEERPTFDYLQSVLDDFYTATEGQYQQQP

Block 1 — method: phase 2a trial; host: patients with IPF
Compound: CC(C)n1cnc(-c2ccc(F)cc2)c1-c1ncc(C(=O)Nc2ccc(N3CCN(C)CC3)cc2)[nH]1
30 mg once daily, skin and subcutaneous disorders, grade 3 — “share of patients with TEAE”: 0%.
It gave 0% for “share of patients with TEAE” (30 mg once daily, skin and subcutaneous disorders, grade 2).
It gave 0% for “share of patients with TEAE” (dose not given, upper respiratory infection, grade 5, pooled arms).
It gave 0% for “share of patients with TEAE” (dose not given, upper respiratory infection, grade 4, pooled arms).
For 60 mg once daily, skin and subcutaneous disorders, grade 5: “share of patients with TEAE” read 0%.
The “share of patients with TEAE” was 0% (dose not given, upper respiratory infection, grade 1, pooled arms).
The “share of patients with TEAE” was 0% (dose not given, skin disorders, grade 4, pooled arms).
It gave 0% for “share of patients with TEAE” (dose not given, skin disorders, grade 5, pooled arms).
For dose not given, skin disorders, grade 3, pooled arms: “share of patients with TEAE” read 0%.
For 30 mg once daily, skin and subcutaneous disorders, grade 4: “share of patients with TEAE” read 0%.

Block 2 — read-out: enzyme activity; action: inhibitor; concentration: 0.5 µM; baseline: control
SMILES: NC(=O)c1ccc(N(C(N)=O)c2c(F)cccc2F)nc1-c1ccc(F)cc1F
The remaining activity was 96.9% (OXSR1 (Homo sapiens, UniProt O95747)).
For CHEK2 (Homo sapiens, UniProt O96017): remaining activity read 97.6%.
It gave 86.8% for remaining activity (DAPK2 (Homo sapiens, UniProt Q9UIK4)).
For TGFBR2 (Homo sapiens, UniProt P37173): remaining activity read 102%.
The remaining activity was 98.2% (DAPK1 (Homo sapiens, UniProt P53355)).
MAP3K3 (Homo sapiens, UniProt Q99759) — remaining activity: 118%.
PRKCA (Homo sapiens, UniProt P17252) — remaining activity: 86%.
The remaining activity was 109% (NEK2 (Homo sapiens, UniProt P51955)).
The remaining activity was 93.7% (STK39 (Homo sapiens, UniProt Q9UEW8)).
For IKBKE (Homo sapiens, UniProt Q14164): remaining activity read 88%.
For CAMK2D (Homo sapiens, UniProt Q13557): remaining activity read 87.3%.
For cGMP-dependent protein kinase 1, isoform beta (PRKG1, Homo sapiens, UniProt Q13976): remaining activity read 95.7%.
It gave 99.5% for remaining activity (STK11 (Homo sapiens, UniProt Q15831)).
The remaining activity was 96.7% (TGFBR1 (Homo sapiens, UniProt P36897)).
The remaining activity was 86.1% (Protein kinase C beta type, isoform beta-I (PRKCB, Homo sapiens, UniProt P05771)).
MAPK9 (Homo sapiens, UniProt P45984) — remaining activity: 93.5%.
The remaining activity was 106% (Tyrosine-protein kinase Lyn, isoform B (LYN, Homo sapiens, UniProt P07948)).
For GRK3 (Homo sapiens, UniProt P35626): remaining activity read 98.1%.
IKBKB (Homo sapiens, UniProt O14920) — remaining activity: 94.8%.
The remaining activity was 95.9% (Cyclin-dependent kinase 5, with p25 (CDK5, Homo sapiens, UniProt Q00535)).
The remaining activity was 101% (PRKACA (Homo sapiens, UniProt P17612)).
For STK10 (Homo sapiens, UniProt O94804): remaining activity read 93.8%.
Cyclin-dependent kinase 4, with cyclin D1 (CDK4, Homo sapiens, UniProt P11802) — remaining activity: 96.8%.

Block 3 — Compound: CC(C)(O)c1cncc(-c2nc3ccc(F)cc3n2C2CC2)c1; method: competition with immobilised ligand; concentration: 1 µM
For Non-receptor tyrosine-protein kinase TYK2, JH2 (TYK2, Homo sapiens, UniProt P29597); cell-free assay: remaining binding read 94%.
It gave 89% for remaining binding (CASK (Homo sapiens, UniProt O14936); cell-free assay).
The remaining binding was 100% (ITK (Homo sapiens, UniProt Q08881); cell-free assay).
PDPK1 (Homo sapiens, UniProt O15530); cell-free assay — remaining binding: 97%.
The remaining binding was 100% (NEK1 (Homo sapiens, UniProt Q96PY6); cell-free assay).
For TIE1 (Homo sapiens, UniProt P35590); cell-free assay: remaining binding read 100%.
PAK3 (Homo sapiens, UniProt O75914); cell-free assay — remaining binding: 100%.
For DYRK1B (Homo sapiens, UniProt Q9Y463); binding: remaining binding read 44%.
For TAOK2 (Homo sapiens, UniProt Q9UL54); cell-free assay: remaining binding read 100%.
It gave 100% for remaining binding (PAK4 (Homo sapiens, UniProt O96013); cell-free assay).
For TGFBR2 (Homo sapiens, UniProt P37173); cell-free assay: remaining binding read 100%.
The remaining binding was 100% (Tyrosine-protein kinase JAK2, JH1 (JAK2, Homo sapiens, UniProt O60674); cell-free assay).
The remaining binding was 100% (TLK1 (Homo sapiens, UniProt Q9UKI8); cell-free assay).
It gave 98% for remaining binding (PIM3 (Homo sapiens, UniProt Q86V86); cell-free assay).
For SIK3 (Homo sapiens, UniProt Q9Y2K2); cell-free assay: remaining binding read 97%.
For PHKG2 (Homo sapiens, UniProt P15735); cell-free assay: remaining binding read 100%.
PIK3CG (Homo sapiens, UniProt P48736); cell-free assay — remaining binding: 77%.
For ULK3 (Homo sapiens, UniProt Q6PHR2); cell-free assay: remaining binding read 95%.
MAPK7 (Homo sapiens, UniProt Q13164); cell-free assay — remaining binding: 100%.
The remaining binding was 100% (MAPK10 (Homo sapiens, UniProt P53779); cell-free assay).
HUNK (Homo sapiens, UniProt P57058); cell-free assay — remaining binding: 100%.
It gave 100% for remaining binding (OXSR1 (Homo sapiens, UniProt O95747); cell-free assay).
The remaining binding was 96% (PIK3CA (Homo sapiens, UniProt P42336, C420R); cell-free assay).
MAP4K4 (Homo sapiens, UniProt O95819); cell-free assay — remaining binding: 72%.
The remaining binding was 96% (MTOR (Homo sapiens, UniProt P42345); cell-free assay).

Block 4 — baseline: vehicle
Structure (SMILES): Ic1ccc(Nc2nc(NCCN3CCOCC3)nc(N3CCOCC3)n2)cc1
wild-type human fibroblasts; GCase activity, 4-MUG hydrolysis lysate; 0.5 µM, 72 h — enzyme activity: 115% and 120% and 109% and 122% and 139%.
The enzyme activity was 140% (glucocerebrosidase L444P (human); 4-MUG hydrolysis in lysate; Gaucher fibroblasts L444P/L444P; 10 µM, 72 h).
wild-type human fibroblasts; GCase activity, 4-MUG hydrolysis lysate; 1 µM, 48 h — enzyme activity: 108% and 110% and 116% and 115% and 98.1%.
For L444P/L444P Gaucher fibroblasts; 4-MUG hydrolysis in lysate; 1 µM, 72 h, without ISRIB: enzyme activity read 120% and 130% and 124% and 111% and 112% and 115% and 116% and 113%.
The enzyme activity was 105% (glucocerebrosidase L444P (human); 4-MUG hydrolysis in lysate; Gaucher fibroblasts L444P/L444P; 0.1 µM, 72 h).
The enzyme activity was 139% and 116% and 141% (wild-type human fibroblasts; GCase activity, 4-MUG hydrolysis lysate; 1 µM, 72 h).
The enzyme activity was 103% and 111% and 113% and 108% and 98.9% and 109% (L444P/L444P Gaucher fibroblasts; 4-MUG hydrolysis in lysate; 0.1 µM, 72 h).
L444P/L444P Gaucher fibroblasts; 4-MUG hydrolysis in lysate; 0.5 µM, 72 h — enzyme activity: 131% and 120% and 102% and 117% and 113% and 115%.
It gave 166% and 124% and 142% and 174% and 127% for enzyme activity (L444P/L444P Gaucher fibroblasts; 4-MUG hydrolysis in lysate; 10 µM, 72 h).

A few entries again (block 3):
It gave 89% for remaining binding (CASK (Homo sapiens, UniProt O14936); cell-free assay).
The remaining binding was 100% (ITK (Homo sapiens, UniProt Q08881); cell-free assay).
PDPK1 (Homo sapiens, UniProt O15530); cell-free assay — remaining binding: 97%.
The remaining binding was 100% (NEK1 (Homo sapiens, UniProt Q96PY6); cell-free assay).
For TIE1 (Homo sapiens, UniProt P35590); cell-free assay: remaining binding read 100%.
PAK3 (Homo sapiens, UniProt O75914); cell-free assay — remaining binding: 100%.
